Measured values gathered from unrelated publications.
Numbered parts are unrelated; each lists some results of a single study.

Sample 1
Target: Centromere-binding protein 1, full length, N-terminal tag (CBF1, Saccharomyces cerevisiae, UniProt P17106, residues 1-351)
UniProt P17106, sequence (whole entry, looked up): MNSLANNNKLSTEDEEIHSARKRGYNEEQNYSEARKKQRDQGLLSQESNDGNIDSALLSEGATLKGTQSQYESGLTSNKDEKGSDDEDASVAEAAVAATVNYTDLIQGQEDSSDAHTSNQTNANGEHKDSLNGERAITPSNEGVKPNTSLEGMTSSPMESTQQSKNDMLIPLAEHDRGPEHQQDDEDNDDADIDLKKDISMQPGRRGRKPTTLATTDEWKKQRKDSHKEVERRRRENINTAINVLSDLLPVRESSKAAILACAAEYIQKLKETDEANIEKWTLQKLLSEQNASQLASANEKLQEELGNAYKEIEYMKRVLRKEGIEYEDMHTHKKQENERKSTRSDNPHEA
Technique: protein-binding microarray
Molecule type: double-stranded DNA, one strand shown
Matrix: in vitro
Tested at: 0.8 µM
Setting: whole 60-bp probe, no competitor
Direction: higher = stronger binding
All sequences stand within: … GTCTTGATTCGCTTGACGCTGCTG
Strand	fluorescence intensity [a.u.]
CTAAGAAAAAAGGGCCACGGGATTTTTTTTTCGTTC	984
CCTAACTACTATATTCACGCTTAATAGCTTCGTACA	510
GAACACGACCAGTCGCAGGTGAGAGTCTTGGAATAG	506
GAAGGGTAGCGACGGGATGTGACAATACCTTTCTAG	525
CTAAAGCGTAATTCTCTCAGCTGAACAAGAACTTTC	528
CTACGATGTTCAAACAACGTGTTATCAGAGAAATTC	610
TGTACGAAGCTATATATGGTGAGTATAGTAGTTAGG	514
CTAATGCCACTATGTGGTGTGAGGAAGCAGATATTC	522
CCTAACTACTATATCCATGTGCCATAGCTTCGTACA	612
CTATTTAGCGCGCGTGATATGGACATAGATGCATTC	1990
GAACTGATAAAACGTTTAATCACGTTAACAAGTTAG	1560
GAACTTGGAATGTGTCACGTTGGGCATTTTTAATAG	1640
CTAAAAACAGCAGAGCACGTCCTATATATATATTTC	602
GAATGTGGAGTATCTGATGTAACACTGTAGTCTTAG	504
CCTAACTACTATATACACGTGCCATAGCTTCGTACA	7430
GAACAAAAATTTTATCACGCTCGAGGTTAGAAGTAG	663
CCTAACTACTATAACGTCAGAATATAGCTTCGTACA	500
TGTACGAAGCTATTATACGTGTTTATAGTAGTTAGG	507
CTACCAATTTGAAGACATGTGGCAACCCGTGTTTTC	792
GAATTACATTGGCGAAAGGTGATGGTGTAAAGTTAG	538
CTAGCCAGTTTGTTTCACGTAATTGGTAACGATTTC	536
GAAGTATAAAAGATACACGCCACTGGTTGAATGTAG	578
TGTACGAAGCTATCAAGCATGACTATAGTAGTTAGG	556
CTAGTCCCACTTTGCCACAGGAGACGTGGCCTGTTC	532
CTATCGTGGATTCATCATCAGAATACGCCTGGCTTC	532

Sample 2
Target: Sal-like protein 4, full length isoform A (SALL4, Homo sapiens, UniProt Q9UJQ4, residues 1-1053)
UniProt Q9UJQ4, sequence (whole entry, looked up): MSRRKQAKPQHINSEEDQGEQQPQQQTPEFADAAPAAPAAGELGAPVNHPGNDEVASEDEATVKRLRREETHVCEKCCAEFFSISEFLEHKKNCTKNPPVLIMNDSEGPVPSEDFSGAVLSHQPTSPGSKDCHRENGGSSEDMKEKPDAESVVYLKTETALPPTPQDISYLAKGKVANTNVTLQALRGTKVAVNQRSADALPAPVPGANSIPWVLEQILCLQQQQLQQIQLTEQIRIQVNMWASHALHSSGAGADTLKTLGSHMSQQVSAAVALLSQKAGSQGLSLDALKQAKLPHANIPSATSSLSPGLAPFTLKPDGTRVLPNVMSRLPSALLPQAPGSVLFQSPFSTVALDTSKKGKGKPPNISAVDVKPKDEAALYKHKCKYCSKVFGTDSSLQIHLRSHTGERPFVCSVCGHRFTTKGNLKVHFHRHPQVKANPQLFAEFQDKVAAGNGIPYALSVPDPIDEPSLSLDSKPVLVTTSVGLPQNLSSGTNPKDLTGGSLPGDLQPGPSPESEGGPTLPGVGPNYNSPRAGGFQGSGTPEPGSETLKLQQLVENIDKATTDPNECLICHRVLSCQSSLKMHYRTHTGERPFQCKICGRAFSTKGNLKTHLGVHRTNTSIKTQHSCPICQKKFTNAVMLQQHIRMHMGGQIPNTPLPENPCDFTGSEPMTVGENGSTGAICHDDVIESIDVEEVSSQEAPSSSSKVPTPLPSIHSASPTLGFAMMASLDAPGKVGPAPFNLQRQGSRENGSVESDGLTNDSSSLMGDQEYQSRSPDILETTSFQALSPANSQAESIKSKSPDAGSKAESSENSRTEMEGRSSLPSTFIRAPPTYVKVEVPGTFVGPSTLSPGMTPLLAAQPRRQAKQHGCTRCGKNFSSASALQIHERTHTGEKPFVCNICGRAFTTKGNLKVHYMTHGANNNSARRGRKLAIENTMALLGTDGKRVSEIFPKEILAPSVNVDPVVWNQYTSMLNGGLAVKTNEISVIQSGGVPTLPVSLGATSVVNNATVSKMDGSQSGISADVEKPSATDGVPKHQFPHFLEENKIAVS
Technique: universal PBM
Molecule type: double-stranded DNA, one strand shown
Matrix: in vitro
Tested at: 600 nM
Setting: 8-mer, flanks averaged, mean of replicates
Direction: higher = stronger binding
Strand	E-score
CGAGAATA	0.149
AAAAGAAT	0.302
CCCATGTA	0.0886
AAAGACCA	-0.0469
GCGCCAGA	-0.231
AAGAACAT	0.193
AGGTTGGC	-0.219
ATTACTTC	0.165
AATTTGTA	0.344
AGAGCCCA	-0.115
ATAGATCC	0.0963
CGTGGCTC	-0.325
CCCGCCGC	-0.375
GCGAACGA	-0.0866
AACATAAC	0.299
CGCCCTAA	-0.124
GCCACCGC	-0.295
GGGGACAC	-0.333
ACCAGCAC	-0.0884
ACAGGACT	-0.136
ACTTGTAC	0.0842
CTGACAAC	-0.0954
CGTGATTA	0.2
ACTAAGCT	-0.0217
CTTACAGA	-0.0335

Sample 3
Target: RNA binding protein fox-1 homolog 2, RRM domain, GST-SBP tag (RBFOX2, Homo sapiens, UniProt O43251-10, residues 100-194)
Technique: RNA Bind-n-Seq
Molecule type: RNA
Matrix: in vitro
Tested at: 365 nM
Setting: natural RNA segment, single round, ends assumed
Reference: no-protein control
Direction: higher = stronger binding
All sequences stand within: GGGAGUUCUACAGUCCGACGAUC … UGGAAUUCUCGGGUGCCAA
Residues (chain): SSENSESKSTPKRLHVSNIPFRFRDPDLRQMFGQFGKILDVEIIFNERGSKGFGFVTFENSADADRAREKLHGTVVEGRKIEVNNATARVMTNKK
Strand	RBNS enrichment (R)
UGGGACUACAGGCGCCUACCACCACGCCCAGCUAAGUUUUGUAUUUUUAGUAGAGUCAGGGUUUCACCAUGUUGGCCAGGCUGGUCUUGAAUUCCUGACCUCAAAUGAUC	0.508
CUGAGGGGGACCCCUGCACCCACCAGGCAAGGUACUGGUGAGGUUUGUCCAAUGGCGGCAGCGGCAGCAGCAGCGGCGGCGGCGGCAGCAGCAGUGGUGGCAGCCCCCCC	0.353
UGCAGUGCUGGAUGACGGGCAGUGUGCAAGGCAUCCCAGCAUUCAUGGUCCCUUGUUAGUGUUGUGCCAAAGGCCUUGGGUCAGUUCUCUCAGCUUCCAUAUGGAAGUGA	0.311
GGGGCUGAACAUGCCUGCCAAAGACGUGUCCGACCUACGUUCCUGGCCCCCUCAUUCAGAGACUGCCCUUCUCACGGGCUCUAUGCCUGCACUGGGAAGGAAACAAAUGU	0.193
GGAGCUGCCUUCAUUCAGGCGGGUAGCUGCACUGGGCAUGGGGUGGUGGUGGGAGCUUACCGCCACCUAUUCAAGCUCUCAGCUACUCCUGAAACGGGCAGAGAUGAUGA	0.776
CACCUGUGAGGAGAGUUGGGGCCCAGCCGUCUUCCUGGCCUCCUUCCUUUCCUCGUGGCAGAGGCCUGCAUGUGGGUGCCAGAGGCCAGCUCUCCCCCUCCAUCUUGGGG	3.6
GAUUCUAUUUCCCCACACCUGUUCCUUUUCUCGGUUUGCUGAGGGCCUCUUGGAUCCACUGGCCCAGAGAUUUAAAAGUUUGGGGUUGAGGAUGUGUGUAGCUCAGUUGG	0.892
AUAGUUUCCUCAAACACAAAUCAGUGUUCCCACGAACAAGUUCCAGUUGAGAAACACUAAGGUUAUGGUGAAUAAAACCAUAGGGAGCUUCUUCCCCCCAACCCCUGGCU	0.201
AUCUCCUAACGGGGGCUGGGGGUAAGAGAAAUCUAACUGCGCUCCCCCAACCCCUCGCCCUGCCAUCUUCCCCUCAAGCCUGCUAAGUUAUCCCAGGCCUGUGCGUGGUG	0.324
UUCAAACAAUCAAGUUGACUCACGUGGGUCCUGAGGCCUGCAGCACGUCGGAUGCUACCCCACUAUGACAGAGGAUUGUGGUCACAACUUGAUGGCUGCGAAGACCUACC	1.13
CUGUUCUGGAACUUGCUCUGAAGACCAGGCUGACCUCGAACUCAGAGAUCUGCCUGCCUCUGCUUCCCAAGUGCUGGGAUUAAAGGCAUGCGCCACCUUCACCUGGGUUU	0.385
ACAGUGCUGAAAUCAGGUGGUUAAACGGGUAAACAAAAUAUACUGUAUUUUGAGAAAUGGCACAAAAACAGGCAGUCAUCUUUAAGGGCUAUGCCUAGGCAAACUACUAA	0.361

Sample 4
Target: Ras GTPase-activating protein-binding protein 1, C-terminal RGG region (G3BP1, Homo sapiens, UniProt Q13283)
UniProt Q13283, sequence (whole entry, looked up): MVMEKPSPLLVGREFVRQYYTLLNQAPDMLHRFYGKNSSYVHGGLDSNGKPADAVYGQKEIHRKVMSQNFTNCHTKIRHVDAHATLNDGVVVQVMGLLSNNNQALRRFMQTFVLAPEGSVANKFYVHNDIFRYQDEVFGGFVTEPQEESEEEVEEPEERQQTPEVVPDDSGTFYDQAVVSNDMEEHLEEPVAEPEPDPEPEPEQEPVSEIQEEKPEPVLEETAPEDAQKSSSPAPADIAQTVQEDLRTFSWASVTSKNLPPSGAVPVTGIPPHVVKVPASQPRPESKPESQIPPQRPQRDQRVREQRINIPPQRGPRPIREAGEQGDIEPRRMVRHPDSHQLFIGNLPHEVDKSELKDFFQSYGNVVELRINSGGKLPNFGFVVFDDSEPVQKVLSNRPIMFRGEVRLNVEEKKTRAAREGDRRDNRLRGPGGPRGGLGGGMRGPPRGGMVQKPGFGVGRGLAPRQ
Technique: RNA Bind-n-Seq
Molecule type: RNA
Matrix: in vitro
Tested at: 1 µM
Setting: whole 134-nt RNA, ends assumed
Together with: 150 mM KCl
Reference: input library
Direction: higher = stronger binding
All sequences stand within: GGGAGUUCUACAGUCCGACGAUC … UGGAAUUCUCGGGUGUCAAGG
Strand	log2 enrichment
UGGCCCUGGUGGCAUGCGGGGAGGAAGAGGUGGCCUCAUAGAUCGUGGUGGUCCCGGUGGAAUGUUCAGAGGUGGCCGUGGUGGAGACAG	2.29
AACACUCAAACCACCAUCAAGCUUUUCCAGGAAUGCUGUCCUCAUUCCACUGACAGAGUUGUUCUUAUUGGAGGAAAACCCGAUAGGGUU	-0.672
CAAGUCCUGUGCUACACAUCGUAUGUACCGAAUCGGAAAAAGGUGGAAAAAAAGGAAAGUAUUAUGUUACGCCGUUCGGAUCUGCACUUC	-1.91
UUUUCUGCAUGGACCGUGCCCUAGAAUUUGCCCCUGCCUGCCAUCGCUUCAAAAUCCUCAAGGCAGAAUGUUUAGCAAUGCUGGGUCGUU	-0.432
CAAGUCCUGUGCUACACAUCGUAUGUACCGAAUCGGGGAAGGGGAAGGGGAAGGGAAAGUAUUAUGUUACGCCGUUCGGAUCUGCACUUC	2.57
CCUGUGCUACACAUCGUAUGUACCGAAUCGGGGAAAAAAAGGAAAAAAAGGGAAAAAAAGGAAAGUAUUAUGUUACGCCGUUCGGAUCUG	-1.71
GCAGGAAGUAAACACAAAUGGAAAUGCUUCGGAUAGUGGCAGGGGUGGGGGUUGCUAAGGAAAGGGUGGGAUGGGAGUGGGUAAAGAGUU	1.84
CAAGUCCUGUGCUACACAUCGUAUGUACCGAAUCGGGAAAGGGAAAGGGAAAGGGGAAAGUAUUAUGUUACGCCGUUCGGAUCUGCACUU	1.46
ACCAUGCAGGUGGGCAUCUUUGGGAAGUGGGGCAAGGAGGGGAUAGGGAGGGGGGUAACACUUUGGGAACAGGUGGUCCCAGGUCGUUUC	-0.92
CUCAAGUCCUGUGCUACACAUCGUAUGUACCGAAUCGGGGAGGGGAGGAGGGGAAAGUAUUAUGUUACGCCGUUCGGAUCUGCACUUCCA	1.01
AGUCCUGUGCUACACAUCGUAUGUACCGAAUCGGGUUUUUGGGAAAGGGUUUUUGGGAAAGUAUUAUGUUACGCCGUUCGGAUCUGCACU	0.814
GUCCUGUGCUACACAUCGUAUGUACCGAAUCGGGGUUUUUUUGGGGAAAGGGGUGGGGAAAGUAUUAUGUUACGCCGUUCGGAUCUGCAC	1.66
CACAGACAACACGCACCCACACAGACACAGAGGGAAGGGGUUGGGAUGGGGACAGGGUGCACAGCAGGGCGGGGUAGGACCCCAGCCACU	-1.03
CCUCAAGUCCUGUGCUACACAUCGUAUGUACCGAAUCGGAAGGAAGGAAGGGGAAAGUAUUAUGUUACGCCGUUCGGAUCUGCACUUCCA	-1.36

Sample 5
Target: Histone acetyltransferase KAT6A, both winged helices, GST fusion (KAT6A, Homo sapiens, UniProt Q92794, residues 1-181)
Technique: protein binding microarray
Molecule type: double-stranded DNA, one strand shown
Matrix: in vitro
Tested at: not given
Setting: 8-mer, flanks averaged, mean of 2 arrays, mostly near background
Reference: not given
Direction: higher = stronger binding
Construct (chain): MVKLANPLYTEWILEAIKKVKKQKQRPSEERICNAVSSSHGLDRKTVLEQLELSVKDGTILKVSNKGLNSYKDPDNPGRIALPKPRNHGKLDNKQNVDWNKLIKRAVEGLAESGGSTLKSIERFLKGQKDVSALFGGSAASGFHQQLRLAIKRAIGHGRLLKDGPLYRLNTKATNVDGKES
Strand	E-score
GATTCACC	0.0681
CCTTCGGC	-0.0375
CACTCTGA	-0.142
CGGCTGCC	0.216
GACGTTCA	0.127
CGCCTAAG	0.16
AAATGCAC	-0.107
ATCCAGCA	-0.176
AGTACTCA	-0.182
CACGCGTA	0.257
ATTTTACC	-0.0264
ACAAAGAG	-0.208
ACGGTTGC	0.151
CCGAACTC	-0.102
CCTGGCAG	-0.113
GTGCCGAA	0.155
GTTGACTA	-0.103
AAGTTATG	-0.157
AGGCCGAG	0.0688

For quick reference, copied from above (sample 2):
Strand	E-score
CGCCCTAA	-0.124
CCCGCCGC	-0.375
GCGCCAGA	-0.231
AAAAGAAT	0.302
ATTACTTC	0.165
GGGGACAC	-0.333
GCGAACGA	-0.0866
CTTACAGA	-0.0335
AGGTTGGC	-0.219
CGTGATTA	0.2
GCCACCGC	-0.295
AGAGCCCA	-0.115
ATAGATCC	0.0963
